Experimental data of several laboratories.
CDK9: Cyclin-dependent kinase 9 (CDK9, Homo sapiens, UniProt P50750)
Sequence of UniProt P50750 (whole entry, looked up): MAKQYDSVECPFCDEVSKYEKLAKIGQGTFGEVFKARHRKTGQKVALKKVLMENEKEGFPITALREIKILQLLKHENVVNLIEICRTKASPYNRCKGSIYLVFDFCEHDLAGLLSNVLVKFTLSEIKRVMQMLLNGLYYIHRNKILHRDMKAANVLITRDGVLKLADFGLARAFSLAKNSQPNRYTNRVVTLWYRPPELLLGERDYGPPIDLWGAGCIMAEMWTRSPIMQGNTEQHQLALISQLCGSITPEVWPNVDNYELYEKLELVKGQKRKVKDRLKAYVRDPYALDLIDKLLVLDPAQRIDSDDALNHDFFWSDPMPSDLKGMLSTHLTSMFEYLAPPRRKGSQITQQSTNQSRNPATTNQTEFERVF
CDK9 with cyclin T1: Cyclin-dependent kinase 9, with cyclin T1 (CDK9, Homo sapiens, UniProt P50750)

For `COc1cc(N2CCN(C)CC2)ccc1Nc1nc(N)n(C(=S)NCc2c(Cl)cccc2Cl)n1`, the remaining activity was 8% (CDK9; enzyme activity; 10 µM; reference: control).
`COc1ccc(-c2oc3cc(Nc4ncc5cc(C(=O)N(C)C)n(C6CCCC6)c5n4)ccc3c(=O)c2F)cc1` gave a selectivity ratio of over 38 fold (CDK9 with cyclin T1; reference: IC50 CDK4/6 over IC50 CDK9).
With `Cc1cc(Nc2cc(N3CCN(C)CC3)nc(Sc3ccc(NC(=O)C4CC4)cc3)n2)[nH]n1` the remaining activity was 103% (CDK9 with cyclin T1; kinase activity, KinaseProfiler; 0.03 µM, species human; reference: control).
For `CN(C)C(=O)c1cc2cnc(Nc3ccc(-c4ccc5c(=O)cc(N6CCOCC6)oc5c4)cc3)nc2n1C1CCCC1`, the remaining binding was 3.9% (CDK9; KINOMEscan binding; 1.0 µM; reference: control).
`O=C(NC1CCC1)c1ccc2nc(-c3cccc(NS(=O)(=O)NCCN4CCCCC4)c3)cn2c1` gave a remaining activity of 100% (CDK9; enzyme activity; 10 µM).
The Dmax of `CC(C)(C)c1cnc(CSc2cnc(NC(=O)C3CCN(C(=O)CCCCCCCN4Cc5cc6c(cc5C4)C(=O)N(C4CCC(=O)NC4=O)C6=O)CC3)s2)o1` (centres unmarked) is reported as over 99% (CDK9; protein degradation, degrader, Western blot; TC-71; 50 nM, 24 h).
`c1cnc2ccc(Nc3nc(NC4CC4)c4nc[nH]c4n3)cc2c1` gave a remaining activity of 77% (CDK9; kinase activity, inhibitor, SelectScreen kinase profiling; 1 µM; reference: control).
`CC[C@@H]1[C@H](F)C(=O)N[C@@H]1COc1nccc2cc(C(N)=O)c(OC)cc12` gave an inhibition of 2.5% (CDK9; ATP-site probe binding, ActivX profiling; THP-1 cell lysate; 0.2 mM, Lys2 site).

A few entries again:
`COc1ccc(-c2oc3cc(Nc4ncc5cc(C(=O)N(C)C)n(C6CCCC6)c5n4)ccc3c(=O)c2F)cc1` gave a selectivity ratio of over 38 fold (CDK9 with cyclin T1; reference: IC50 CDK4/6 over IC50 CDK9).
